Experimental data collected from several papers.
A part holds a random share of what one study measured. Substitutions count along the parent as printed.

Set 1 — method: protein binding microarray; molecule type: double-stranded DNA, one strand shown; sample: in vitro; concentration: not given; baseline: not given; reading: higher = stronger binding
Target: Histone acetyltransferase KAT6A, winged helix 1, GST fusion (KAT6A, Homo sapiens, UniProt Q92794, residues 1-85)
Setting: 8-mer, flanks averaged, mean of 2 arrays, mostly near background
Construct (chain): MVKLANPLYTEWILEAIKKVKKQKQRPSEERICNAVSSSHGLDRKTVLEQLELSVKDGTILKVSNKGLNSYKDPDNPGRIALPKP
`GCTGAAGA` has an E-score of -0.109.
`AGTTTTTA` has an E-score of -0.161.
The E-score of `AAGTCTGT` is reported as -0.183.
With `CTGAAGGA` the E-score was -0.123.
The E-score of `AAATACTG` is reported as -0.173.
`CAGGTCAA` gave an E-score of -0.219.
For `AAGCAATG`, the E-score was -0.216.
With `AAAAAAGC` the E-score was -0.0116.
The E-score of `CCTCTACC` is reported as -0.0801.
The E-score of `CAGAGCGC` is reported as 0.302.
The E-score of `GCGAATAA` is reported as 0.158.
With `ACGGCTGG` the E-score was 0.151.
For `AGGATAAT`, the E-score was -0.116.
The E-score of `CATATGAC` is reported as -0.0102.
For `CCGCGCAA`, the E-score was 0.393.
With `ACAGCAGC` the E-score was -0.134.
`AAGCGACT` has an E-score of -0.118.
`ACTATCGC` gave an E-score of 0.00368.
With `TAATCGTA` the E-score was -0.124.
`ACGAGGTC` gave an E-score of -0.0163.
The E-score of `ATTAAATC` is reported as -0.0561.
For `AGGATGTC`, the E-score was -0.136.
The E-score of `AGGCGGGC` is reported as 0.313.
For `AAGGCCCC`, the E-score was 0.144.
`ATACGAAC` gave an E-score of -0.135.

Set 2 — method: competition protein-binding microarray; molecule type: double-stranded DNA, one strand shown; sample: in vitro; concentration: 2 µM; together with: Pho4 competitor, 0.05 µM; reading: higher = stronger binding; shared flanks, not repeated: … GTCTTGATTCGCTTGACGCTGCTG
Target: Centromere-binding protein 1, full length, His-tagged (CBF1, Saccharomyces cerevisiae, UniProt P17106, residues 1-351)
Sequence of UniProt P17106 (whole entry, looked up): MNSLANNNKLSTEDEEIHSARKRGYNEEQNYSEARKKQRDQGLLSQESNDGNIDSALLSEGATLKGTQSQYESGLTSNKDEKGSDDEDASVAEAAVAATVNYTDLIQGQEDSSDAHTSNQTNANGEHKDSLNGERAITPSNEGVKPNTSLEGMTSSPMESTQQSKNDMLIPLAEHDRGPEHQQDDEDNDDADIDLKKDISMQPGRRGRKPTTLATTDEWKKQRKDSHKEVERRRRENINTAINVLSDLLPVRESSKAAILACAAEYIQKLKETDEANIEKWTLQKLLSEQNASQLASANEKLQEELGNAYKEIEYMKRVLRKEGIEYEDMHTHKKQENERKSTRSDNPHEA
Setting: whole 60-bp probe, lowest competitor level
With `AAAGCGGTAATTTCACACGTGTTTTCACATATCTAT` the fluorescence intensity was 1650 a.u.
For `CCGACTGCGCAGCCCAACGTGCGGATAATTGGAGAC`, the fluorescence intensity was 92 a.u.
The fluorescence intensity of `GGATCCCATCCAACACACGTGTTGAAATGACATCAG` is reported as 1060 a.u.
For `ACAAAAGCCTGAATTGACATGACAACGACAATAGGG`, the fluorescence intensity was 73 a.u.
With `GTCTTGTCTCATTGACCTGTGGGTGTCCCCACTTCA` the fluorescence intensity was 70 a.u.
With `CGGAAATGGCACCATCACCTGAAAAAGAAAGTAATC` the fluorescence intensity was 94.1 a.u.
With `CATACCCAACCTTGCCTAGTGGGTGAAGATATTTGT` the fluorescence intensity was 52 a.u.
The fluorescence intensity of `CATACCCAACCTTTTCACGTGTCCTAAGATATTTGT` is reported as 1300 a.u.
With `AAATTACTAAGTTGTCACTTAACTTACCCCGTATGA` the fluorescence intensity was 70.6 a.u.
The fluorescence intensity of `GCAGAGTGATAGCGTCACAGGAAATAGCGCAACCTT` is reported as 66.9 a.u.
`ACTTAGCGCAAACGTCACCTGGGTGGCGTTTTCCGC` has a fluorescence intensity of 77.3 a.u.
`TGCGCAACAACTTGACAGGTGGGTGTATGTCTAGAA` has a fluorescence intensity of 76.2 a.u.
`AGTAGCCAACTTCTTAACGTGTTGGGCAAGCAAGAT` has a fluorescence intensity of 78.1 a.u.
For `ACCGTATATATACTACACGCACACACACCAACACAA`, the fluorescence intensity was 90.4 a.u.
For `GTAATCCCAATTCACCACGTTCTTCCATGTTCAAGT`, the fluorescence intensity was 105 a.u.
`CGGGGTTAAGTTTGCCTCGTGGGTGGCTTGCAGCAG` has a fluorescence intensity of 83.3 a.u.
For `TCTTTCTGAATTTAGCACGCTTGGCACCGGTAGCGG`, the fluorescence intensity was 73.3 a.u.
With `GTCTTGTCTCATTGTTCAGTGGGTGTCCCCACTTCA` the fluorescence intensity was 79 a.u.
With `CTAACGTTGGAGGATCCCGTGACGGTGGAGTATCTC` the fluorescence intensity was 439 a.u.
The fluorescence intensity of `TTTAAAATGAGTGCGTAACCGTACTTTCCTAAAAAT` is reported as 68.3 a.u.
With `TGCGTATTCGCCCGACACGTGATGGGCGCAGATTGG` the fluorescence intensity was 2960 a.u.
`ATCAAGGTGCCTTGCCACCTGATCTATCTTTGATCG` has a fluorescence intensity of 188 a.u.
The fluorescence intensity of `CTTCTGTAAATTTGTAGAGTGGGTGGACGCGCCCCG` is reported as 89 a.u.
For `TCAGGTAGATCTTAGCACGTGTGGAAGCGCATAACA`, the fluorescence intensity was 1160 a.u.

Set 3 — method: RNA Bind-n-Seq; molecule type: RNA; sample: in vitro; concentration: 1 µM; setting: whole 134-nt RNA, ends assumed; together with: 150 mM KCl; baseline: input library; reading: higher = stronger binding
Target: Ras GTPase-activating protein-binding protein 1, C-terminal RGG region (G3BP1, Homo sapiens, UniProt Q13283)
Sequence of UniProt Q13283 (whole entry, looked up): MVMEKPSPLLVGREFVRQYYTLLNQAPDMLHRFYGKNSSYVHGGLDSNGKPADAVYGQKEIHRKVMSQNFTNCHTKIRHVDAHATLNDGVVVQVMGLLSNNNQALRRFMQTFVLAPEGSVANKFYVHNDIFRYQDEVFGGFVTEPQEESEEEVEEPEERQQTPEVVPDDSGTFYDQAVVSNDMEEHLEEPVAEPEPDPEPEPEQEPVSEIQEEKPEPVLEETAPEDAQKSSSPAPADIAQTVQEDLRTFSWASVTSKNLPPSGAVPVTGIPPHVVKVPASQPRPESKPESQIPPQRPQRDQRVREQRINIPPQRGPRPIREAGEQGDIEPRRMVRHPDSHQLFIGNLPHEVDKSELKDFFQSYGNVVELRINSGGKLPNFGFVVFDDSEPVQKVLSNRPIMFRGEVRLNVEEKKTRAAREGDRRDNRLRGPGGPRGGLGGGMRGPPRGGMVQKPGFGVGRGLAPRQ
Shared flanks, not repeated: GGGAGUUCUACAGUCCGACGAUC … UGGAAUUCUCGGGUGUCAAGG
For `UCCUCAAGUCCUGUGCUACACAUCGUAUGUACCGAAUCGGUGGGUGGUGGGAAAGUAUUAUGUUACGCCGUUCGGAUCUGCACUUCCAGC`, the log2 enrichment was -0.218.
With `GCAGGAAGUAAAAACAAAUGGAAAUGCUUCGGAUAGUGGCAGGGGUGGGGGUUGCUAAGGAAAGGGAAAGAUGGGAGUGGGUAAAGAGUU` the log2 enrichment was 1.58.
`CAAGUCCUGUGCUACACAUCGUAUGUACCGAAUCAAAUUUAAAUUUAAACCCAAAAAAGUAUUAUGUUACGCCGUUCGGAUCUGCACUUC` has a log2 enrichment of -0.718.
`CACAGACAACACGCACCCACACAGACACAGAGGGAAGGGGUUGGGAUGGGGACAGGGUGCACAGCUGGGCGGGGUAGGACCCCAGCCCCU` has a log2 enrichment of -0.377.
`UGGCCCUGGUGGCAUGCGGGGAGGAAGAGGUGGCCCCAUGGAUCGUGGUGGUCCCGGUGGAAUGUUCAGAGGUGGCCGUGGUGGAGACAG` has a log2 enrichment of 2.5.
The log2 enrichment of `GCAGGAAGUAAAAACAAAUGGAAAUACUUCGGAUAGUGGCAGGGGUGGGGGUUGCUAAGGAAAGGGUGGGAUGGGAGUGGGUAAAGAGUU` is reported as 2.3.
With `UCAAGUCCUGUGCUACACAUCGUAUGUACCGAAUCGGCCGGGGCCGGGCCGGGGAAAGUAUUAUGUUACGCCGUUCGGAUCUGCACUUCC` the log2 enrichment was -1.09.
`GCAGGAAGUAAAAACAAAUGGAAAUGCUUCGGAUAGUGGCAGGGGUGGGGGUUGCUAAGGAAAGGGUGGGAUGGAAGUGGGUAAAGAGUU` gave a log2 enrichment of 1.63.
`GCAGGAAGUAAAAACAAAUGGAAAUGCUUCGGAUAGUGGCUGGGGUGGGGGUUGCUAAGGAAAGGGUGGGAUGGGAGUGGGUAAAGAGUU` gave a log2 enrichment of 0.612.
`GUCCUGUGCUACACAUCGUAUGUACCGAAUCGGGAAAAAGGGUUUUUGGGUUUUUGGGAAAGUAUUAUGUUACGCCGUUCGGAUCUGCAC` gave a log2 enrichment of -0.442.
The log2 enrichment of `UGUGCUACACAUCGUAUGUACCGAAUCGGGGUUUUUGGGGAAAAAAAGGGGAAAAAAAGGGGAAAGUAUUAUGUUACGCCGUUCGGAUCU` is reported as 0.491.
`AGUCCUGUGCUACACAUCGUAUGUACCGAAUCGGGGAAAAAAAGGGGUGGGGAGGGGAAAGUAUUAUGUUACGCCGUUCGGAUCUGCACU` gave a log2 enrichment of 1.94.
`GUUUGAUGAUCGUGGACGGAGUGAUUACGAUGGCAUUGGCAGCCGUGGUGACAGAAGUGGCUUUGGCAAAUUUGAACGUGGUGGAAACAG` has a log2 enrichment of 1.17.
`GUCCUGUGCUACACAUCGUAUGUACCGAAUCGGGGUUUUUGGGGUUUUUGGUUUUUGGAAAGUAUUAUGUUACGCCGUUCGGAUCUGCAC` gave a log2 enrichment of -1.03.

Set 4 — method: RNA Bind-n-Seq; molecule type: RNA; sample: in vitro; concentration: 365 nM; baseline: no-protein control; reading: higher = stronger binding
Target: RNA binding protein fox-1 homolog 2, RRM domain, GST-SBP tag (RBFOX2, Homo sapiens, UniProt O43251-10, residues 100-194)
Setting: natural RNA segment, single round, ends assumed
Shared flanks, not repeated: GGGAGUUCUACAGUCCGACGAUC … UGGAAUUCUCGGGUGCCAA
Residues (chain): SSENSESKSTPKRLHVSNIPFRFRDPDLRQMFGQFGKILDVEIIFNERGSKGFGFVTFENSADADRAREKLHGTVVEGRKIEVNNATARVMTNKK
Under “RBNS enrichment (R)”, `CACCAGCCACACAGCGGUAGGGAUGAAAUAGUGACAUAAUAUAUUCUAUUUUUGUAACCUUCCUAUUUUGUAGCUCUGUUUAGAGAGAUGCUGGUUUUUGCCUGAAGGCC` is recorded as 0.55.
Under “RBNS enrichment (R)”, `CUCAUCUCCCCUCACAGGCUGUCUUCAUGAUGCAGGACCUGGGCACAUGGUCACAUUAUUCCGUUCACAUUGGUCCUUGUGAGAACCUCACAGUCUGGAGGCGGCUGCUU` is recorded as 0.625.
`GAAUGCCAGAGUUAGCCUCCCAGGCUUGCGGGUGGACAUGCCUGCUCCCUGCCAGCCUCCAGUGGCCUGGCCAGGCCCUCCCGAGCCUGUCUGCCCUCCCCAGGGGUGGA` — result for “RBNS enrichment (R)”: 7.74.
`UACAAGUAGGGGUUGUGGGUGACCAGUUGCACUUGGCCUCUGGAUUGUGGGAAUUAAGGAAGUGACUCAUCCUCUUGAAGAUGCUGAAACAGGAGAGAAAGGGGAUGUAU` — result for “RBNS enrichment (R)”: 0.63.
For `ACUCUUCAUCCUGGAAGUGGGAACUGGAGUCCCACCCACAGUGCAUUCAGAAAGCAUGCUGUGUGGGGGCUGCUUCUCAGGAGGCCAGGCCCUUCUGAGCGGAACCGUCC`, “RBNS enrichment (R)” read 1.64.
For `GCAAACCCAAAAUAUUUUAUUAAGAAACUGUUUCAAAGAUAAAUUUGCACUGCUCCUUUUUCUUGCCCCACCCCUCCUGAUGGGACAAAAGGGUGAAGAGCUCAAAGAAC`, “RBNS enrichment (R)” read 0.525.
`CUGUCUAGUGCGUGCUAUCUGUGUGGGGAGAAGCUUCGUGAAUAUGCACCGUUUUGAUGCCCAUGCAACAGUGAGGAAGAAAAACCCUCGAGACAUUUUUUCUGUACUCA`: “RBNS enrichment (R)” 0.996.
Under “RBNS enrichment (R)”, `UCUACUAAUUAUGGGCUAAAGAGUUUCUUAUAAUAAAAUAUCCUCUAAGAUUAUAAAAUAAGCAGGUACUUUAUUUACUAUGUUGUACUCUGCAGUGUUGAUUUUUUAAA` is recorded as 0.787.
For `UUGAGCAGGGUCUGAAUUUUUUCAUUUAUUUCCUUUUUUGCCAGCAGACAGACUUGAGUCUGUAAAGACAAGCAAAUACACUGACAGAAGUUUACCAUAGUUUCUAAAAU`, “RBNS enrichment (R)” read 1.27.
Under “RBNS enrichment (R)”, `CUGAGGCCUAGAAGGGAGGAGUGGUCCACCCACGGUCCCAGCACAAGGCAGAGCUGGGAUGAAAACAGGGCUGAAAAGACUCAGGGCCAAUUAUUGGCUGAGCCCACGGU` is recorded as 0.329.
`UGUGAGAAUGCAGUAAGGGGGCUGCCAGCUCUCUUCUCCCUCAGACCAUUGUCUCCCCGCUGAACUCGGCUGCCUUGCCACCGAGGUGCCAGCCAGGCUAGAGGAGUGCC` — result for “RBNS enrichment (R)”: 0.739.
For `UGUUGCCUUUUCAUUGAUUAGAGACAAUAAAUAUCUUGUAACUUCCUAACCAGAUCUGAGCUGUGCUCACAAUAAUAAUAAUGAAAUCAGAUUCUUUGAUGCUGGACUCA`, “RBNS enrichment (R)” read 0.314.

Set 5 — target: CCNF, cyclin fold, Cln2 fusion (human); method: yeast growth competition, sequencing; sample: yeast; setting: strong parent motif; baseline: not given; reading: higher = stronger binding
Parent: RBL2 docking peptide (human); STTRRRLFVENDS
`S13Q`: “normalised enrichment score” 7.18.
`T3F` — result for “normalised enrichment score”: 5.9.
For `R5N`, “normalised enrichment score” read 0.423.
For `N11W`, “normalised enrichment score” read 8.41.
`T3I`: “normalised enrichment score” 9.42.
For `F8Y`, “normalised enrichment score” read 5.41.
Under “normalised enrichment score”, `L7D` is recorded as 1.13.
`R5E` — result for “normalised enrichment score”: -0.522.
`N11I` — result for “normalised enrichment score”: 8.6.
For `R5I`, “normalised enrichment score” read 1.33.
Under “normalised enrichment score”, `R4T` is recorded as 2.74.
For `R5D`, “normalised enrichment score” read 0.294.
`S13R` — result for “normalised enrichment score”: 7.94.
`S1H` — result for “normalised enrichment score”: 7.5.
Under “normalised enrichment score”, `V9N` is recorded as 8.69.
`R5S` — result for “normalised enrichment score”: 1.31.
For `E10S`, “normalised enrichment score” read 7.98.
Under “normalised enrichment score”, `F8N` is recorded as 1.73.
Under “normalised enrichment score”, `E10C` is recorded as 7.41.
Under “normalised enrichment score”, `D12T` is recorded as 7.99.
